Results of several laboratories.
Lines come from different studies, so protocols differ.
Organism: Staphylococcus simulans
Strain: 22

SMILES | assay | test system | conditions | MIC
Cc1ccc2[nH]c3c(c2c1)CCCC3NCCc1ccc(O)cc1 (stereo not shown) | broth microdilution |  |  | 16 µg/mL
CN[C@H](CC(C)C)C(=O)N[C@H]1C(=O)N[C@@H](CC(N)=O)C(=O)N[C@H]2C(=O)N[C@H]3C(=O)N[C@H](C(=O)N[C@H](C(=O)O)c4cc(O)cc(O)c4-c4cc3ccc4O)[C@H](O)c3ccc(c(Cl)c3)Oc3cc2cc(c3O[C@@H]2O[C@H](CO)[C@@H](O)[C@H](O)[C@H]2O[C@H]2C[C@](C)(NCc3ccc(OCc4cn(CC(=O)N[C@H](C(=O)N[C@@H](CCN)C(=O)N[C@H]5CCNC(=O)[C@H]([C@@H](C)O)NC(=O)[C@H](CCN)NC(=O)[C@H](CCN)NC(=O)[C@H](CC(C)C)NC(=O)[C@@H](CC(C)C)NC(=O)[C@H](CCN)NC5=O)[C@@H](C)O)nn4)c(OC)c3)[C@H](O)[C@H](C)O2)Oc2ccc(cc2Cl)[C@H]1O | broth microdilution | cation-adjusted Mueller-Hinton broth |  | 0.012 µM
CC[C@H](C)[C@H](NC(=O)[C@@H](CCC(=O)O)NC(=O)[C@H](CC(C)C)NC(=O)c1cccc(C(=O)O)n1)C(=O)N[C@H]1CCCCNC(=O)[C@H](CC(N)=O)NC(=O)[C@@H](CC(=O)O)NC(=O)[C@H](Cc2c[nH]cn2)NC(=O)[C@@H](Cc2ccccc2)NC(=O)[C@H]([C@@H](C)CC)NC(=O)[C@@H](CCCN)NC1=O |  |  | 18 h, 37 °C, 0.3 mM ZnSO4 LB | > 64 µg/mL
CC(C)CCCCCCCCC/C=C/C(=O)N[C@@H](CC(N)=O)C(=O)N[C@H]1CNC(=O)[C@@H]2CCCN2C(=O)[C@H](C(C)C)NC(=O)[C@@H](CN)NC(=O)CNC(=O)[C@H](CC(=O)O)NC(=O)CNC(=O)[C@H](CC(=O)O)NC(=O)[C@H](CC(=O)O)NC(=O)[C@H]2CCCCN2C1=O | broth microdilution | Mueller-Hinton broth, Mg2+ 10 mg/L | 16 h, 30 °C, added: Ca2+ 2.5 mM | 4 µg/mL
CC[C@H](C)[C@H](NC(=O)[C@@H](CCC(=O)O)NC(=O)[C@H](CC(C)C)NC(=O)c1cccc(-c2ccccn2)n1)C(=O)N[C@H]1CCCCNC(=O)[C@H](CC(N)=O)NC(=O)[C@@H](CC(=O)O)NC(=O)[C@H](Cc2c[nH]cn2)NC(=O)[C@@H](Cc2ccccc2)NC(=O)[C@H]([C@@H](C)CC)NC(=O)[C@@H](CCCN)NC1=O |  |  | 18 h, 37 °C, 0.3 mM ZnSO4 LB | > 64 µg/mL
CC(C)CCCCCCCCC/C=C/C(=O)N[C@@H](CC(=O)O)C(=O)N[C@H]1CNC(=O)[C@@H]2CCCN2C(=O)[C@H](C(C)C)NC(=O)[C@@H](CN)NC(=O)CNC(=O)[C@H](CC(=O)O)NC(=O)CNC(=O)[C@H](CC(=O)O)NC(=O)[C@H](CC(=O)O)NC(=O)[C@H]2CCCCN2C1=O | broth microdilution | Mueller-Hinton broth, Mg2+ 10 mg/L | 16 h, 30 °C, added: Ca2+ 2.5 mM | 8 µg/mL
CN[C@H](CC(C)C)C(=O)N[C@H]1C(=O)N[C@@H](CC(N)=O)C(=O)N[C@H]2C(=O)N[C@H]3C(=O)N[C@H](C(=O)N[C@H](C(=O)NCC(N)=O)c4cc(O)cc(O)c4-c4cc3ccc4O)[C@H](O)c3ccc(c(Cl)c3)Oc3cc2cc(c3O[C@@H]2O[C@H](CO)[C@@H](O)[C@H](O)[C@H]2O[C@H]2C[C@](C)(NCc3ccc(OCc4cn(CC(=O)N[C@H](C(=O)N[C@@H](CCN)C(=O)N[C@H]5CCNC(=O)[C@H]([C@@H](C)O)NC(=O)[C@H](CCN)NC(=O)[C@H](CCN)NC(=O)[C@H](CC(C)C)NC(=O)[C@@H](CC(C)C)NC(=O)[C@H](CCN)NC5=O)[C@@H](C)O)nn4)c(OC)c3)[C@H](O)[C@H](C)O2)Oc2ccc(cc2Cl)[C@H]1O | broth microdilution | cation-adjusted Mueller-Hinton broth |  | ≤ 0.003 µM
CC[C@H](C)[C@H](N)C(=O)N[C@@H](C)C(=O)N[C@@H](CC(C)C)C(=O)N[C@H](CCC(=O)O)C(=O)N[C@H](C(=O)N[C@H]1CCCCNC(=O)[C@H](CC(N)=O)NC(=O)[C@@H](CC(=O)O)NC(=O)[C@H](Cc2c[nH]cn2)NC(=O)[C@@H](Cc2ccccc2)NC(=O)[C@H]([C@@H](C)CC)NC(=O)[C@@H](CCCN)NC1=O)[C@@H](C)CC |  |  | 18 h, 37 °C, 0.3 mM ZnSO4 LB | > 64 µg/mL
C#CCOc1ccc(CN[C@@]2(C)C[C@H](O[C@H]3[C@H](Oc4c5cc6cc4Oc4ccc(cc4Cl)[C@@H](O)[C@@H](NC(=O)[C@@H](CC(C)C)NC)C(=O)N[C@@H](CC(N)=O)C(=O)N[C@H]6C(=O)N[C@H]4C(=O)N[C@H](C(=O)N[C@H](C(=O)NCC(N)=O)c6cc(O)cc(O)c6-c6cc4ccc6O)[C@H](O)c4ccc(c(Cl)c4)O5)O[C@H](CO)[C@@H](O)[C@@H]3O)O[C@@H](C)[C@H]2O)cc1OC | broth microdilution | cation-adjusted Mueller-Hinton broth |  | 0.149 µM
Cc1ccc2[nH]c3c(c2c1)CCCC3NCCc1ccc(Br)cc1 (stereo not shown) | broth microdilution |  |  | 4 µg/mL

Excerpt of the above:
SMILES | assay | test system | conditions | MIC
Cc1ccc2[nH]c3c(c2c1)CCCC3NCCc1ccc(O)cc1 (stereo not shown) | broth microdilution |  |  | 16 µg/mL
CC[C@H](C)[C@H](N)C(=O)N[C@@H](C)C(=O)N[C@@H](CC(C)C)C(=O)N[C@H](CCC(=O)O)C(=O)N[C@H](C(=O)N[C@H]1CCCCNC(=O)[C@H](CC(N)=O)NC(=O)[C@@H](CC(=O)O)NC(=O)[C@H](Cc2c[nH]cn2)NC(=O)[C@@H](Cc2ccccc2)NC(=O)[C@H]([C@@H](C)CC)NC(=O)[C@@H](CCCN)NC1=O)[C@@H](C)CC |  |  | 18 h, 37 °C, 0.3 mM ZnSO4 LB | > 64 µg/mL
